Values quoted from earlier work as cited in several papers.
Compare with care: the assays were run in different laboratories. Numbers after ± are the reported error.

Structure (SMILES) | tested on | test | test system | conditions | scale | endpoint | value
COc1ccc(Nc2ncnc3ccc(-c4ccc(S(=O)(=O)N5CCOCC5)cc4)cc23)cc1Cl | Trypanosoma brucei | parasite growth |  |  |  | EC50 | 820 nM
c1ccc2c(c1)CCNC2c1c[nH]c2cccnc12 (stereo not shown) | Escherichia coli | efflux pump inhibition | AG100 AcrAB-TolC expressing | 50 µM | reference: untreated cells | relative fluorescence index | 0.37
CN1CCN(S(=O)(=O)c2ccc(-c3ccc4ncnc(Nc5ccc(OCc6ccccc6)c(Cl)c5)c4c3)cc2)CC1 | Trypanosoma brucei | parasite growth |  |  |  | EC50 | 610 nM
CCOC(=O)[C@H]1c2c(ccc3ccccc23)O[C@@H]2c3ccsc3CCN21 | Staphylococcus aureus | efflux pump inhibition | ATCC 25923 | 50 µM | reference: untreated cells | relative fluorescence index | 0.06
CC(C)=CCC/C(C)=C\CCn1cc(CC(C)(P(=O)(O)O)P(=O)(O)O)nn1 | myeloma cells |  |  |  |  | lowest effective concentration | 25 nM
N#Cc1ccnc(N2C(=O)CC[C@H]2C(=O)N(c2cncc(F)c2)[C@H](C(=O)NC2CC(F)(F)C2)c2ccccc2Cl)c1 |  |  | relapsed/refractory mIDH1 AML patients | dose not given, trial, interim |  | overall response rate | 42%
COc1cc2c(cc1OC)C(c1c[nH]c3ccccc13)NCC2 (stereo not shown) | Staphylococcus aureus | efflux pump inhibition | ATCC 25923 | 50 µM | reference: untreated cells | relative fluorescence index | 0.17
O=C(c1ccc(-c2ccc3ncnc(Nc4ccc(OCc5cccc(F)c5)c(Cl)c4)c3c2)cc1)N1CCCCC1 | Trypanosoma brucei | parasite growth |  |  |  | EC50 | 940 nM
Cc1sc(-c2ccc(C(F)(F)F)cc2)nc1-c1nn[nH]c1C#N |  |  | ZDF rat | 2 mg/kg/day, 6 weeks |  | HbA1c change from baseline | 2.96 ± 0.15%
COc1ccc(Nc2nc(Nc3ccc(OCC[18F])cc3)ncc2Br)cc1 |  |  | S180 tumour-bearing mice, blood | intravenous, 60 min |  | tissue uptake | 1.93 ± 0.1 %ID/g
c1ccc2c(c1)CCCNC2c1c[nH]c2ncccc12 (stereo not shown) | Staphylococcus aureus | efflux pump inhibition | ATCC 25923 | 50 µM | reference: untreated cells | relative fluorescence index | -0.16
CCC(=C(c1ccc(O)cc1)c1ccc(O)cc1)[c-]1cccc1.[Fe+2].c1cc[cH-]c1 | NCI60 human tumour cell panel | cell growth |  | mean-graph midpoint |  | GI50 | 520 nM
Fc1cccc(COc2ccc(Nc3ncnc4ccc(-c5ccccc5)cc34)cc2Cl)c1 | Trypanosoma brucei | parasite growth |  |  |  | EC50 | 3900 nM
CCOC(=O)C1(C)C=C(C(=O)OC)C(=O)CC1 (stereo not shown) |  | GSH adduct formation | PBS | pH 7.4, 37 °C, with: GSH 10 mM |  | rate constant | 0.0007 min⁻¹
O=S(=O)(c1ccc(-c2ccc3ncnc(Nc4ccc(O)c(Cl)c4)c3c2)cc1)N1CCOCC1 | Trypanosoma brucei | parasite growth |  |  |  | EC50 | 1100 nM
c1ccc2c(c1)CCNC2c1c[nH]c2ncccc12 (stereo not shown) | Staphylococcus aureus | efflux pump inhibition | ATCC 25923 | 50 µM | reference: untreated cells | relative fluorescence index | -0.22

A few entries again:
Structure (SMILES) | tested on | test | test system | conditions | scale | endpoint | value
COc1cc2c(cc1OC)C(c1c[nH]c3ccccc13)NCC2 (stereo not shown) | Staphylococcus aureus | efflux pump inhibition | ATCC 25923 | 50 µM | reference: untreated cells | relative fluorescence index | 0.17
O=C(c1ccc(-c2ccc3ncnc(Nc4ccc(OCc5cccc(F)c5)c(Cl)c4)c3c2)cc1)N1CCCCC1 | Trypanosoma brucei | parasite growth |  |  |  | EC50 | 940 nM
